Measured values of several laboratories.
Parts stem from different laboratories: compare values within a part only.

Sample 1 — method: RNA Bind-n-Seq; molecule type: RNA; medium: in vitro; concentration: 200 nM; setting: whole 134-nt RNA, ends assumed; added: 150 mM KCl; reference: input library; direction: higher = stronger binding
Target: Fragile X messenger ribonucleoprotein 1, C-terminal low-complexity region (Fmr1, Mus musculus, UniProt P35922)
Shared flanks, not repeated: GGGAGUUCUACAGUCCGACGAUC … UGGAAUUCUCGGGUGUCAAGG
Strand	log2 enrichment
AGUCCUGUGCUACACAUCGUAUGUACCGAAUCGGGCCCCGGGGCCCCGGGCCCCGGGAAAGUAUUAUGUUACGCCGUUCGGAUCUGCACU	-0.762
CAAGUCCUGUGCUACACAUCGUAUGUACCGAAUCGGGGUUUGGGGAGGGGUGGGGAAAGUAUUAUGUUACGCCGUUCGGAUCUGCACUUC	1.32
UGGGAGGUGGAUUUUGUUUAUUUUUUUAGCUCAUUUCCAGGGGUGGGAAUUUUUUUUUAAUAUGUGUCAUGAAUAAAGUUGUUUUUGAAG	0.629
UCAAGUCCUGUGCUACACAUCGUAUGUACCGAAUCGGGAAAGGGUUUGGGAGGGAAAGUAUUAUGUUACGCCGUUCGGAUCUGCACUUCC	1.23
AGUCCUGUGCUACACAUCGUAUGUACCGAAUCGGGUUUUUUUGGGAAAAAGGGUGGGAAAGUAUUAUGUUACGCCGUUCGGAUCUGCACU	0.628
AGUCCUGUGCUACACAUCGUAUGUACCGAAUCGGGUUUGGGUUUGGGAAAAAAAGGGAAAGUAUUAUGUUACGCCGUUCGGAUCUGCACU	0.0958
UGGGAGGUGGAUUUCGUUUAUUUUUUUAGCUCAUUUCCAGGGGUGGGAAUUUUUUUUUAAUAUGUGUCAUGAAUAAAGUUGUUUUUGAAA	0.0151
GCAGGAAGUAAAAACAAAUGGAAAUGCUUCGGAUAGUGGCAGGGGUGGGGGUUGCUAAGGAAAGGUUGGGAUGGGAGUGGGUAAAGAGUU	0.145
CUGUGCUACACAUCGUAUGUACCGAAUCGGGGUUUUUGGGGUUUUUGGGGUUUUUUUGGGGAAAGUAUUAUGUUACGCCGUUCGGAUCUG	0.0992
AGUCCUGUGCUACACAUCGUAUGUACCGAAUCGGUUUUUUUGGAAAAAGGAAAAAGGAAAGUAUUAUGUUACGCCGUUCGGAUCUGCACU	-1.33
CAAGUCCUGUGCUACACAUCGUAUGUACCGAAUCGGAAAGGUUUUUGGAAAAAGGAAAGUAUUAUGUUACGCCGUUCGGAUCUGCACUUC	-0.892
GUCCUGUGCUACACAUCGUAUGUACCGAAUCGGGGAAAAGGGAAAAGGGGAAAAGGGGAAAGUAUUAUGUUACGCCGUUCGGAUCUGCAC	0.346
UGGGAGGUGGAUUUUGUUUAUUUUUUUAGCUCCUUUCCAGGGGUGGGAAUUUUUUUUUAAUAUGUGUCAUGAAUAAAGUUGUUUUUGAAA	-0.0669
CUGUGCUACACAUCGUAUGUACCGAAUCGGGAAAAAAAGGGUUUUUUUGGGAAAAAAAGGGAAAGUAUUAUGUUACGCCGUUCGGAUCUG	-1.51

Sample 2 — method: universal PBM; molecule type: double-stranded DNA, one strand shown; medium: in vitro; concentration: 600 nM; direction: higher = stronger binding
Target: Sal-like protein 4, full length isoform A (SALL4, Homo sapiens, UniProt Q9UJQ4, residues 1-1053)
Chain of UniProt Q9UJQ4 (whole entry, looked up): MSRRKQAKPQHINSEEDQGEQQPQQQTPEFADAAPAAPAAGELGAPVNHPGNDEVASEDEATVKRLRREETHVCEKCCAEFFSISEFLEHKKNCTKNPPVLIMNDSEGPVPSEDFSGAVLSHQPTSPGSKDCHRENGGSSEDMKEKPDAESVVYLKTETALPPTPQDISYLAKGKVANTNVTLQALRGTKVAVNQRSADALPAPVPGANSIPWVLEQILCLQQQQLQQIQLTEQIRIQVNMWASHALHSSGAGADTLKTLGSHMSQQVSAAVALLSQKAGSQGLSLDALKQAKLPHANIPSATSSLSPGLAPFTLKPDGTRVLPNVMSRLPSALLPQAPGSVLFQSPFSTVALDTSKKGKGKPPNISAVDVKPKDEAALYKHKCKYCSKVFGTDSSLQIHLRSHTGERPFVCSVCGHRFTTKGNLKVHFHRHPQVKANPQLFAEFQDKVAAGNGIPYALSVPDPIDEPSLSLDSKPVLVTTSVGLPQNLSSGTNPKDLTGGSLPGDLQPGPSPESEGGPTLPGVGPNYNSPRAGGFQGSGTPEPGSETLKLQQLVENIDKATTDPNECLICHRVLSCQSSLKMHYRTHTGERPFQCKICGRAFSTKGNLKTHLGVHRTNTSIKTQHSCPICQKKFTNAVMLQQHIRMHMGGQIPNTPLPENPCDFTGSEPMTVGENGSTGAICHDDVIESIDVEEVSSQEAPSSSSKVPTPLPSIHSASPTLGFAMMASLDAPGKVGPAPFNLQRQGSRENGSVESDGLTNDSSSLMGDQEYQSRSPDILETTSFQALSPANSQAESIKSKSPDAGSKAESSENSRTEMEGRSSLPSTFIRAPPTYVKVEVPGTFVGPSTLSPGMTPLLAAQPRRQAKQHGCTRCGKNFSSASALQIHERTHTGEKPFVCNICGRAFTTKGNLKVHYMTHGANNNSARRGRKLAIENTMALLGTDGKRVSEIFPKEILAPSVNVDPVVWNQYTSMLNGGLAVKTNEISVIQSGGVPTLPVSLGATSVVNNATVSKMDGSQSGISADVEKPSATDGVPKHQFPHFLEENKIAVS
Setting: 8-mer, flanks averaged, mean of replicates
Strand	E-score
TGTTACAA	0.205
GACGTGTA	-0.0327
CACAATGA	0.128
ACGCCCGG	-0.31
CACAAGCG	-0.15
AGGGGTGA	-0.25
TGCTCGAA	-0.0179
ATAGTCCG	0.0385
ATCTGAAG	0.0966
ACAAAAGA	0.205
GAGAATGC	-0.0759
GGGGTGGA	-0.263
CCACGCCG	-0.28
ACGGTTTG	-0.134
CTGAGCGA	-0.155
CAGGTCGA	-0.15
ATACTAGA	0.234
CGACTATC	-0.139
GATGGCCC	-0.325
ACAAATCC	0.0872
CCAATCAC	0.0238
GTAAGCGA	0.0654
AGTAACAC	0.0859

Sample 3 — method: EMSA with sequencing; molecule type: double-stranded DNA, one strand shown; medium: in vitro; concentration: 10 and 20 nM; reference: negative control set to 0; direction: higher = stronger binding
Target: Hepatocyte nuclear factor 3-alpha (Foxa1, Mus musculus, UniProt P35582, residues 1-468, full length assumed)
Chain of UniProt P35582 (whole entry, looked up): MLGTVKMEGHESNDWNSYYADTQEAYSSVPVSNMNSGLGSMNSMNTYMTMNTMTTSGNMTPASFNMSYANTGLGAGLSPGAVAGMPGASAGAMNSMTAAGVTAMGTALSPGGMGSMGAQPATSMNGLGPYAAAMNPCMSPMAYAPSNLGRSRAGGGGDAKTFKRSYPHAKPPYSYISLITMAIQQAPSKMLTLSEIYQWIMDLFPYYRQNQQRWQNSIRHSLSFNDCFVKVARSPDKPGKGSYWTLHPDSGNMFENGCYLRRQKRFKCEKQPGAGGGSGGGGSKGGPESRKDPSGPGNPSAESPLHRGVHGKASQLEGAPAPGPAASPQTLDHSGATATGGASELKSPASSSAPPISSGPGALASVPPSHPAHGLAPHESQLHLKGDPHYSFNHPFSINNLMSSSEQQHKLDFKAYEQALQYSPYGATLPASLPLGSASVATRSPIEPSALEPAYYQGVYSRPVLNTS
Setting: whole designed probe, mean of two concentrations, ends assumed
Shared flanks, not repeated: GTGAGCGGTGCCCATTGATGGGGAAC … TTTCACTGGGATCGTGGGGAC
Strand	normalised bound fraction [ratio]
ATAATCTGAGGTGGCGACTGGCCAGATAGCCTGCCCCTACTCACTCTGGCTGTAAAATAAGCCTACAGTATCCACAAGGGGAAATACTAACAGTGTAATCTAGCACATCAAGGTGCAGTCAAAGAAGCCAGGTCCCCACCGATGAGATGAAGAAAATAACCACCTAAGTCTCAGGTCCCTATATCTGCCTAAT	-0.0292
ATCCCAGGGCCTCTGGGCCTCCCACTGCACTGTGTCATCTGCCATTTGGTGTTTTCTTGGAGAAGAAGCTCTGTCATCTTCTTACATGAGCAAAGTAATCTTCTATGTCTCTCCCACATTGTTGGTCATGTTTTCTGTTACTTGCAGCTGAATGCATTCCTGTGCCATCAATCATGTCCACTTTAGAGATAAA	-0.0635
ATCTTCCCCCTCTTCCTTGCCCCACCAGCTCACCTTCCCGGGTTATTTGCACAAAGGAAAATAAATAAAGCCGGCATTCGTTAACCCTCTTCTGGCGCAAACTGCTGTTTGCTCTGGATGAATCATGGTCCTTTGGCGAGGCGTGGCTCCGGGAGAGCAAAGCACCGTGTCAGGGCCATGATCCGGGGTGGCC	0.362
AAAATACCTACTGAAATTAAAATACCAGGATAGGACAAAATGATCTTTGATGTTGTTTCCAATTATCTCGTGTTTGTTCTAGGCACTGGCTATGTCATCTAAGCTTCGCCTTTTTTTTTTTTTCATGGTGACACAACCATGGCTGTGTTCAGGTTTACATGTTCTTACTTGTGTATTGGGGAAGGTTGGCCCC	0.177
GTTTGGCATTTATTTTTACTTTGTTGTAATAGTAAACACAAGGGATCCCCTTTATTTAGCATAAAATTTCCTTGCCAGAAAGTAAATATTTGATGTTTATATAAGCAGCTATAAAAACAATTTCCTGAGAGATTTCTCCACAAAAATATTTACCTGCTTGAGCCGATGGATTGAGATGATTTGGAAACCAAAC	0.399
TCCCCCAAAACGTTATTGCTTGCACTGTGGGACCTGATCCAGTGGGCTGTCATGGACGAACGGCAACACCCACTGGGACCCTATTCCCTTTGTGTAATCTGAGCAGCTCCAAACCGCGGCCCTCCTGGGCCCCCTAGCGGCAGCAGCGATGGGCACAACGTTCAAAGATCCCTCAAAGCCCTCGGGGAGTGGC	-0.00606
CACACACACACACACACCCCACACACGCACTACGAGAAGGGGAGTTTGATCTTGTCTCATTGGCGTCTCGGGTCTGAAAGGAAAATCGTTTGGGTAAACAGCCAAGCTTCCAGGCTTAACGCCCGGCTCCCGCCCCCGCCCCTCCATCCCCTCCTGCCTCCCCCACTCGCCTTCAACCCCACCCGCCACCCAC	0.108
GAACAAAATACTTTTTGGCCTGCTTAATGTGGGAGAACATATAGACTTTTCTAGTTTCAGAGGTACTGGGAGACACTCCACATCACCTCAGTGTAAACAAGTGGTTCAGATCTCTGCTGTGAATATAGGCAGCTTTGGCTAAAATCCTGTTTTGTTTTGTTTTCTTTTTTGTTTTACAATAACTTAGTAACTT	0.279

Sample 4 — method: RNA Bind-n-Seq; molecule type: RNA; medium: in vitro; concentration: 365 nM; reference: no-protein control; direction: higher = stronger binding
Target: RNA binding protein fox-1 homolog 2, RRM domain, GST-SBP tag (RBFOX2, Homo sapiens, UniProt O43251-10, residues 100-194)
Setting: natural RNA segment, single round, ends assumed
Shared flanks, not repeated: GGGAGUUCUACAGUCCGACGAUC … UGGAAUUCUCGGGUGCCAA
Construct (chain): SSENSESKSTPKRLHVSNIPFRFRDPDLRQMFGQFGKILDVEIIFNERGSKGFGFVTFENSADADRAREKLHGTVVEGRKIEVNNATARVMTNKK
Strand	RBNS enrichment (R)
CAAAGAAGCCUUAAUGUUCAAGCUUUAGAAAGAUCAGAGCAAUUUUUCUCUUUCAGUCCAAACUAAGACUCUCUGUAUUUAAAUCUCUCUGGGGCAAGAGGGCUAGAUUU	0.84
GUACAGUUUAACGGGGAUAGAGGGGGAAUAAUGUCCAUACCAUUGUGUGUGGAGGAUUUACAGCUAAGCUGUAGUUGCAGAGUACAUGUACAGUAAUGAAGUUCACUGUG	0.791
CCUUAAAGCAAUAACUGACAACUCUUUGUAGUCCUCCUUGUGGGUAGUUAAGAGUGGGGUCACCCCUUUAACUCCAAGCACUACAUUUUGGCGGCUGCCGGCCUCUGGGG	0.375
GAUUGUUGUCAUUUGGCUCUGCAGCUUGUUUUGUCGUCUGUGUCUGUCUGAGGAACCUGUGUGUCCAGAGCCACAUGAAAUGUGAAUGAUUGUUGGCAAUAUAAUCUUGA	2.25
CGUCUACAGCUAAAACAAUUUGCCAAUAAAGUACAUGUUUUUCCUAAGCCAAAAAUAAAUACGUUAACAGAAAAAUGAUUUAGGAUAUAGCUUGAAUGCUUAAAUAUGUG	0.485
UUUCUUAUCCUGACCUGACCAUACUAAUAAAUAUAAUUUAUAAGCAUUGCCAUUGGAGGCUCAAUUGACUGAAAUUACUUUAACAUUUUGGAAAUUGUUAUGUAUCACUA	0.325
UCUGACUUAGGCAUGUGUAGAUGGGUCCUUAGAUUCGUCCCGAGGAAGAGACUGCAAAGACACAUGAAGAUUUCUGAUCCUAAAAUGCUGUUUUGUUUACUUCCUGUCAA	3.49
AAUACUUUUGUUCCAAACCAUUAAGUAAUGUACGCAUGUUAAACACGUAGAGUGCCUGGCACUGGCAAGGACUCAGUGGUCCACUAUUGUGACAGUAAUGGUUAUUACAA	4.43
UUCACCUAGAUGGAAUAGCCACCCUGAGCAGAACUUUGUGAUGCUUCAUUCUGUGGAAUUUUGUGCUUGCUACUGUAUAGUGCAUGUGGUGUAGGUUACUCUAACUGGUU	0.508
AGCUAAUGUGUACAGGUGUCCUGGAGCCCCAGCUUGCUGCCUGGGGUCUUCGGGGGGAGGGGGGCUUUUGAGUGGGUGUUGCCUACAGAGAAGCUGCCUCUGUAGAGUGG	0.517
AGUCUUUUUCUCACUCAAACCUUCUCUCUGUAGAAGCAGAAAAGUUGCUGAUAGCCAGGAAAGAGAGCUUUCGGCCAGGGGAGCAGAGUGGAGACUCCCAUCUUUGGGGA	0.569
UUUGUACGAGUAAGGGUUUGAUCUACAAAAGAGCUCACAUGGACGCACUGAGAACGCCUGCCAGCUUCCCCAUGCCCUCACUUGGUUUGUGUUUUAGGUUAAGUAGUCAA	1.63

For quick reference, copied from above (sample 1):
Strand	log2 enrichment
UCAAGUCCUGUGCUACACAUCGUAUGUACCGAAUCGGGAAAGGGUUUGGGAGGGAAAGUAUUAUGUUACGCCGUUCGGAUCUGCACUUCC	1.23
AGUCCUGUGCUACACAUCGUAUGUACCGAAUCGGGUUUUUUUGGGAAAAAGGGUGGGAAAGUAUUAUGUUACGCCGUUCGGAUCUGCACU	0.628
AGUCCUGUGCUACACAUCGUAUGUACCGAAUCGGGUUUGGGUUUGGGAAAAAAAGGGAAAGUAUUAUGUUACGCCGUUCGGAUCUGCACU	0.0958
UGGGAGGUGGAUUUCGUUUAUUUUUUUAGCUCAUUUCCAGGGGUGGGAAUUUUUUUUUAAUAUGUGUCAUGAAUAAAGUUGUUUUUGAAA	0.0151
